Published values pooled from the literature.
A part holds a random share of what one study measured.

Study 1
Target: Histone acetyltransferase KAT6A, winged helix 2, GST fusion (KAT6A, Homo sapiens, UniProt Q92794, residues 85-181)
Method: protein binding microarray
Form: double-stranded DNA, one strand shown
Sample: in vitro
Tested at: not given
Setting: 8-mer, flanks averaged, mean of 2 arrays, mostly near background
Reference: not given
Reading: higher = stronger binding
Endpoint: E-score
Construct (chain): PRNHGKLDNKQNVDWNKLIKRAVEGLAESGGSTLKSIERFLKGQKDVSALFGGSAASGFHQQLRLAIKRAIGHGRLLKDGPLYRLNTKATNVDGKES
GAATAGTC: -0.0681
ACAATCGT: -0.173
AACCCAGT: -0.0481
CTTGAGCC: -0.0963
CACACGAC: -0.0968
GGAGCGAC: 0.101
GGCTGCCA: -0.0114
ATCGGGAC: -0.0261

Study 2
Cell line: HEK-293T
Observed: pseudovirus infection
Method: FDA-approved drug library screen
Organism: VSV pseudotyped with SARS-CoV-2 spike
Tested at: 10 µM
Time: 16 h
Reference: vehicle-treated
Endpoint: GFP-positive cells
CN1CCN2c3ncccc3Cc3ccccc3C2C1 (stereo not shown): 111%
C/C(=C\C(=O)OCCCCCCCCC(=O)O)C[C@@H]1OC[C@H](C[C@@H]2O[C@H]2[C@@H](C)[C@H](C)O)[C@@H](O)[C@H]1O: 87.8%
CC1(C)S[C@@H]2[C@H](NC(=O)[C@H](N)c3ccc(O)cc3)C(=O)N2[C@H]1C(=O)O: 83.6%
CN(C)CCOC(C)(c1ccccc1)c1ccccn1 (stereo not shown): 103%
CC(C)(Sc1cc(C(C)(C)C)c(O)c(C(C)(C)C)c1)Sc1cc(C(C)(C)C)c(O)c(C(C)(C)C)c1: 120%

Study 3
Target: Replicase polyprotein 1ab, polymerase (rep, Severe acute respiratory syndrome coronavirus 2, UniProt P0DTD1)
Observed: enzyme activity
Action: inhibitor
Tested at: 20 µM
Endpoint: inhibition
Cc1cccc(C)c1NC(=O)CN1CCCC1=O: 9.37%
N=C(N)N: 4.76%
O=C1N[C@@H]2[C@@H](O)[C@@H](O)[C@H](O)[C@@H](CO)N2C1=O: -3.4%
O=C1[C@H](CC[C@H](O)c2ccc(F)cc2)[C@@H](c2ccc(O)cc2)N1c1ccc(F)cc1: 1.58%
CC(C)=CCC[C@](C)(O)[C@H]1CC[C@]2(C)[C@@H]1[C@H](O)C[C@@H]1[C@@]3(C)CC[C@H](O)C(C)(C)[C@@H]3[C@@H](O)C[C@]12C: -1.57%
CC(C)Oc1ccc(Cc2ccc(NC3=NCCN3)cc2)cc1: -4.85%
C[C@H](N)C(=O)N[C@@H](CCC(N)=O)C(=O)O: -7.09%
CC[N+](CC)(CCCNC1=CC(=O)C(NCCC[N+](CC)(CC)Cc2ccccc2)=CC1=O)Cc1ccccc1: -3.93%
Nc1cccc(-c2cc3c(Oc4cccc(O)c4)ncnc3[nH]2)c1: 10.8%
COc1cc(C(C)=O)ccc1O: -11.5%
CN(C)CCOc1ccc(/C(=C(/CCCl)c2ccccc2)c2ccccc2)cc1: -12%
OC[C@@H](O)[C@@H](O[C@@H]1O[C@H](CO)[C@H](O)[C@H](O)[C@H]1O)[C@H](O)[C@@H](O)CO: -9.71%
NC1CCN(c2nc3c(cc2F)c(=O)c(C(=O)O)cn3-c2ccc(F)cc2F)C1 (stereo not shown): 7.78%
CC[C@@H](C(N)=O)N1CCCC1=O: -0.71%
Oc1cc(O)c2c(c1)O[C@H](c1ccc(O)c(O)c1)[C@H](O)[C@H]2c1c(O)cc(O)c2c1O[C@H](c1ccc(O)c(O)c1)[C@H](O)C2: 48.7%
CC(=O)N[C@H]1CSSC[C@@H](C(N)=O)NC(=O)[C@H](C(C)C)NC(=O)[C@H](C)NC(=O)[C@H](Cc2c[nH]cn2)NC1=O: 0.11%
O=C(O)c1cc(=O)c2ccccc2o1: 0.27%
CC(C)C[C@@H](N)C(=O)N[C@H]1C(=O)N[C@@H](CC(N)=O)C(=O)N[C@H]2C(=O)N[C@H]3C(=O)N[C@H](C(=O)N[C@H](C(=O)O)c4cc(O)cc(O)c4-c4cc3ccc4O)[C@H](O)c3ccc(c(Cl)c3)Oc3cc2cc(c3O[C@@H]2O[C@H](CO)[C@@H](O)[C@H](O)[C@H]2O[C@H]2C[C@](C)(N)[C@H](O)[C@H](C)O2)Oc2ccc(cc2Cl)[C@H]1O: 0.38%
CN(C)N(C)C(=O)[C@@]1(Cc2ccccc2)CCCN(C(=O)[C@@H](Cc2c[nH]c3ccccc23)NC(=O)C(C)(C)N)C1: -4.09%
N=C(N)c1ccc(/C=C/c2ccc(C(=N)N)cc2O)cc1: 7.26%

Study 4
Target: Sal-like protein 4, full length isoform B (SALL4, Homo sapiens, UniProt Q9UJQ4-2, residues 1-616)
Method: universal PBM
Form: double-stranded DNA, one strand shown
Sample: in vitro
Tested at: not given
Setting: 8-mer, flanks averaged, mean of replicates
Reading: higher = stronger binding
Endpoint: E-score
ATTACTCA: 0.291
CGATATGA: 0.225
CAGCGGAA: -0.249
CGTAGTCC: -0.227
AAATGAGG: 0.106
AAACGAGC: 0.074
ATCGCCCC: -0.229
AAGACGAC: 0.0177

Study 5
Target: Interferon regulatory factor 5, full length, phosphomimetic (IRF5, Homo sapiens, UniProt Q13568-2, residues 1-514, K96S/S451D/S453D/S456D/S462D)
Method: protein-binding microarray
Form: double-stranded DNA, one strand shown
Sample: in vitro
Tested at: 250 nM
Setting: 60-bp whole probe
Added: salmon DNA 0.4 mg/ml
Reference: random background probes
Reading: higher = stronger binding
Endpoint: log fluorescence
Shared flanks, not repeated: GCCTAGCAC … GTGCTAGGTCTTGATTCGCTTGACGCTGCTG
TTAGATCTCAGTCTCGTTTA: 0.708 z-score
GCCGAACTGAGTTTCGAGAC: 4.8 z-score
TCAGGTTCAGATATAGGACT: -0.187 z-score
TTAGATTTCAGTTTCGATTC: 10.1 z-score
GATTTTTTAGCTTGCAAAAA: 0.137 z-score

Repeated from above (study 1):
CTTGAGCC: -0.0963
CACACGAC: -0.0968
GGAGCGAC: 0.101
GGCTGCCA: -0.0114
